Results gathered from unrelated publications.
Parts stem from different laboratories: compare values within a part only.

Block 1
Target: Interferon regulatory factor 3, full length, phosphomimetic (IRF3, Homo sapiens, UniProt Q14653, residues 1-427, S386D/S396D/S398D/S402D/T404D/S405D)
UniProt Q14653, sequence (whole entry, unmodified, looked up): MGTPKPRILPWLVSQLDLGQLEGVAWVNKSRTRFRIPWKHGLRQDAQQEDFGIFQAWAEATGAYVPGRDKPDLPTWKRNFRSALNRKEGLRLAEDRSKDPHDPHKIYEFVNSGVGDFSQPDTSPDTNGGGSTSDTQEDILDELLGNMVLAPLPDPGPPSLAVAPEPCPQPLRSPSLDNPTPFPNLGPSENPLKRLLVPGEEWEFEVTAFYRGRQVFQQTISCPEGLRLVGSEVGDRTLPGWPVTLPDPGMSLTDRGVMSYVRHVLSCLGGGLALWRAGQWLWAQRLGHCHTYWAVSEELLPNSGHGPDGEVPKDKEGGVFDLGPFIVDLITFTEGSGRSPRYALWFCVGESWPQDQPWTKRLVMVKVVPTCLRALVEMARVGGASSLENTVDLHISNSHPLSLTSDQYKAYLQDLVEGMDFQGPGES
Method: protein-binding microarray
Molecule type: double-stranded DNA, one strand shown
Sample: in vitro
Tested at: 2540 nM top
Notes: 60-bp whole probe
Added: salmon DNA 0.4 mg/ml
Reference: random background probes
Direction: higher = stronger binding
Constant ends, left off below: GCCTAGCAC … GTCTTGATTCGCTTGACGCTGCTG
Oligonucleotide	fitted relative affinity
TCACCATCCTGTATGGAACTGTGCTAG	1.07 z-score
TTAGATCGCAGTTTCGATTAGTGCTAG	3.24 z-score
TTAGGACTGGGTATCAGTTAGTGCTAG	-0.0309 z-score
GACGATCTCAGTCTCGAGGCGTGCTAG	0.646 z-score
TCACTTTGCTCATTTTTCACTGTGCTA	0.911 z-score
GACGATTCCGGGTATCGAGACGTGCTA	0.626 z-score
GACGATTTCGGGTTTCCAGACGTGCTA	3.21 z-score
GACGCACTGGGGACTGGGGACGTGCTA	-0.83 z-score
GACGGACTGTTTCTCCTGACGTGCTAG	1.16 z-score
GCCGGTTTCGACACTGGGGACGTGCTA	3.69 z-score
TTAGATCTCAGTCTCGCTTAGTGCTAG	0.426 z-score
GACGGTTTCGGACTGGGCACGTGCTAG	4.59 z-score
GACGTTTTCGGGACTGGGGACGTGCTA	1.94 z-score
GACGGTTTCCATATCCTGACGTGCTAG	6.92 z-score
TTAGGACTGCTTTTCCTTTGGTGCTAG	0.368 z-score
TTGGGTTTCGGGTTTCGGTTAGTGCTA	4.89 z-score
GACGGTCTCAGTCTCGAGACGTGCTAG	1.13 z-score
CGACATCTGCAAGATCCACAAGTGCTA	0.124 z-score
TTTGAACTGAGTATCGATTAGTGCTAG	0.297 z-score
TCAAGTCTGCAACATGGGACTGTGCTA	-0.444 z-score
TCATAACTCATTTTCATACTGTGCTAG	1.47 z-score

Block 2
Target: RNA binding protein fox-1 homolog 2, RRM domain, GST-SBP tag (RBFOX2, Homo sapiens, UniProt O43251-10, residues 100-194)
Method: RNA Bind-n-Seq
Molecule type: RNA
Sample: in vitro
Tested at: 365 nM
Notes: natural RNA segment, single round, ends assumed
Reference: no-protein control
Direction: higher = stronger binding
Target sequence (chain): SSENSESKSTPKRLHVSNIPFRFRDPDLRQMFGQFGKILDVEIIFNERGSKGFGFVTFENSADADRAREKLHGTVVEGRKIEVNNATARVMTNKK
Oligonucleotide	RBNS enrichment (R)
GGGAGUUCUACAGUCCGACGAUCUCUACCACUACAUGGAAUGACAUAAAAGCAACUUGUAGGCCAGAGGGGUGGGGUGAACCCUUCUGUGGUCUGUACCCCUGGUCUAGUGGGAGGAAUCCCUGAAGACCUGCUGGAAUUCUCGGGUGCCAA	0.523
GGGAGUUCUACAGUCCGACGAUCGCCAGUUUGAAUUAGAAGGCAAGGCUCUGAUUUUAGUAGUGUUUUGGAAAAGGACUUUUUUCUUCACCUUCCUCUUUGCCUCAUGUGUACACACACACACACAUCUUGUAUGGAAUUCUCGGGUGCCAA	0.983
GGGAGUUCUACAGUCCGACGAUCCAUGUUUCUGUUUUGUGACACAGUGGAUGGAAAGGUUUGUCCUCUUCCUACUAUAGCAUGAACCCUACAUACGCCACCCUCAGUCUCUCUUGCUUCCUCUUUAACCCGGAUGGAAUUCUCGGGUGCCAA	3.9
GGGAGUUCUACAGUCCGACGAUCGCCCUGCAGGGCCCUGGGCUCCUGUCUGCUGAUGCUGCCCGCCUCACCUGCAGAGGUGCCCAUCAGGGCGAGUUCUCAGGUGUCUGUUGCUGUGCCAUGGGGGCCUUCUUUGGAAUUCUCGGGUGCCAA	0.374
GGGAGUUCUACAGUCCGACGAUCUGUGGUUGUAAAAGCAAGCCCAGGAAAGGUGACCUCAUUCUCACGGACUGUGCUGUGCAGCUUUCCAAGUGUGUAUUAAAGUGACGCAUCAGUGGGUAGCUUGGGUUCCGUGGAAUUCUCGGGUGCCAA	0.624
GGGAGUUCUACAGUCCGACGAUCCUAAUCCUAGUCCUUUUCCUGAGGUAGAUUUUAAACAGUAUUUUUAAAGUCCAAGACAUAGGUUUUUCUAGUUUAUUCCCUGAAGAUCUGUUGCCACAGUUGGGAGAUUUUGGAAUUCUCGGGUGCCAA	0.33
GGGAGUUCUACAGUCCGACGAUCCUCAGUAAUAUACUUUAUUCUUUGAAGAUUUAAUUUAAAAACUUCAUAGAAAAUCCUUUUUUGCUUUUCCUUUUGAGACAGAGUUUUGGUAGCUCCUACCAGCCUCCAAUUGGAAUUCUCGGGUGCCAA	0.684
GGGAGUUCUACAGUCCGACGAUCUUCAAGCAGUUCUCCUGCCUCAACCUCCCGAGUAGCUGGGACUACAGGCAUGUGCCACCACACCUGGCUCAUUUUUGUAUUUUUAGUAGAGACAGGGUUUCACCAUGUUGUGGAAUUCUCGGGUGCCAA	0.307
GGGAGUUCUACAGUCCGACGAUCUCAUGAGCAGAUCAGGACACUUAGCAAAUGUAAAAAUAAAAUCUAACUCUCAUUUGACAAGCAGAGAAAGAAAAGUUAAAUACCAGAUAAGCUUUUGAUUUUUGUAUUGUUGGAAUUCUCGGGUGCCAA	0.517
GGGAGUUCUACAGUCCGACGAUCGAGUGUGUGUGUAUGUGUGUGUGUAUGUAAGUCCCCUGUGUGGGUCCAGUUUCAAGGCAUGUACAAUAAGCAUGGAGUCGUAUUGAUGAGGACUUACCUCCUGAAGAUAUUGGAAUUCUCGGGUGCCAA	0.921
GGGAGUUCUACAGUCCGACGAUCACAUAUUCAAGAUCCUACAGUAAGAGUGAAACAUUCACAAAGAUUUGCGUUAAUGAAGACUACACAGAAAACCUUUCUAGGGAUUUGUGUGGAUCAGAUACAUACUUGGCUGGAAUUCUCGGGUGCCAA	0.334
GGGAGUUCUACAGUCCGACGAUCGAGCCCCAAUUCUGCUUUCCCACAAAAUAAACCUAAUGCCAUCAGGCAAAACAUUUCUGUGUCUGUAUCUGCCCUGGUAUAUUCUCAUUCCUGGGGUCACAUCCUGCCUAUGGAAUUCUCGGGUGCCAA	0.613

Block 3
Target: Histone acetyltransferase KAT6A, both winged helices, GST fusion (KAT6A, Homo sapiens, UniProt Q92794, residues 1-181)
Method: protein binding microarray
Molecule type: double-stranded DNA, one strand shown
Sample: in vitro
Tested at: not given
Notes: 8-mer, flanks averaged, mean of 2 arrays, mostly near background
Reference: not given
Direction: higher = stronger binding
Residues (chain): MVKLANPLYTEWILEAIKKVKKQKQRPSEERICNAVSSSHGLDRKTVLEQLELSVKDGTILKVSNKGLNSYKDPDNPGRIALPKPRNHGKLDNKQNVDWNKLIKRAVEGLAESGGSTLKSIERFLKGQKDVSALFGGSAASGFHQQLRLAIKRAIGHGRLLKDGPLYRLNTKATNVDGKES
Oligonucleotide	E-score
GCACTCGC	0.175
ACCGATGG	-0.018
TCCGCGAA	0.246
CGAGCCTA	-0.138
ACTTGGAG	-0.182
GGCCAGTA	-0.0996
CAGACCGC	0.169
AGAGAGCG	0.0782
CGCTTGAC	0.302
GACAATAA	0.0067
AGAGTGAG	-0.32
CGGTGCTC	0.0522
CTCGCGTA	0.166
GGAGCGGA	0.212
GACGCACA	0.183
TACGACGA	-0.262
GCCAAAGA	-0.0926
ACCGTGAT	0.0949
CCAAAGAG	-0.114
AATTACGA	-0.0405
CACTTACG	0.0651
GGCGGTGA	0.18
CACACCTA	-0.0371
GTTCCTAA	-0.0716

Block 4
Target: Sal-like protein 4, full length isoform B (SALL4, Homo sapiens, UniProt Q9UJQ4-2, residues 1-616)
Method: universal PBM
Molecule type: double-stranded DNA, one strand shown
Sample: in vitro
Tested at: not given
Notes: 8-mer, flanks averaged, mean of replicates
Direction: higher = stronger binding
Construct (chain): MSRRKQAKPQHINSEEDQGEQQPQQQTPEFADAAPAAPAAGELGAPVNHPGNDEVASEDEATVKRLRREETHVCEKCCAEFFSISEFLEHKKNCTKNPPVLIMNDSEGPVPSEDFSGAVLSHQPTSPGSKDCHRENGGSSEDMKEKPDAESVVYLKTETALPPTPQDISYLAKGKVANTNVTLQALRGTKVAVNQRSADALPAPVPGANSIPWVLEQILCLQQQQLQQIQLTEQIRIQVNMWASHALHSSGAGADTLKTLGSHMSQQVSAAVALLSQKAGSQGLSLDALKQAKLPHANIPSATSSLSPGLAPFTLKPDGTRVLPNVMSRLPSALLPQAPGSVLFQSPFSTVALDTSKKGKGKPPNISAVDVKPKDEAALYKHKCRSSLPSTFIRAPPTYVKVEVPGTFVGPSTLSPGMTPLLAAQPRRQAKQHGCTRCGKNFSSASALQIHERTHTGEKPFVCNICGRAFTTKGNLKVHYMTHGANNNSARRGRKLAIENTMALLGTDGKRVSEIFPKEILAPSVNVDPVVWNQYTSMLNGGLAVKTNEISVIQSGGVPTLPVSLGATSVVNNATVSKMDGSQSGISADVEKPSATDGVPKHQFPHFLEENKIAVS
Oligonucleotide	E-score
GACACAGC	-0.0591
ATCTACGC	0.175
CCGAGCCA	-0.13
CACTGTCG	-0.238
GCAGGAGC	-0.163
AGCCTGTG	-0.169
GCTAAAGC	-0.0582
GGACGAGA	-0.0637
ACTGGCCT	-0.122
TATAAGCA	0.291
CCTTGAGA	0.0302
CGCAGGCA	-0.165
ATCGAACG	-0.0205
AATTTTCA	0.316
CGGCACGC	-0.222
AGGCACCC	-0.253
ACGCCGCG	-0.224
